{"data": "Measurements of several laboratories", "target": "Serine/threonine-protein kinase 26 (STK26, Homo sapiens, UniProt Q9P289)", "note": "Lines come from different studies, so protocols differ. Several values in a cell are separate wells, animals, samples, runs or records."}
{"Structure (SMILES)": "Nc1nc(Nc2ccccc2)sc1C(=O)c1ccccc1", "test": "enzyme activity, inhibitor", "setting": "10 µM", "measurement": "remaining activity", "result": "65%"}
{"Structure (SMILES)": "Cc1cnc2nc1Nc1cccc(c1)COC/C=C/COCc1cc(ccc1OCCN1CCOCC1)N2", "test": "binding", "setting": "0.1 µM", "measurement": "remaining binding", "result": "76%"}
{"Structure (SMILES)": "C=CC(=O)Nc1cccc(-c2cnc3[nH]cc(C(=O)NC(C)(C)C)c3n2)c1", "test": "enzyme activity, inhibitor", "setting": "0.1 µM", "measurement": "inhibition", "result": "32%"}
{"Structure (SMILES)": "C=CC(=O)N1Cc2nc(-c3cc(-c4cc(Cl)cnc4Cl)c(F)cc3F)n(-c3ccncn3)c2C1", "test": "cell-free assay, inhibitor", "setting": "1 µM", "measurement": "inhibition", "result": "12.1%"}
{"Structure (SMILES)": "CNC(=O)C1CCN(c2cc(C)c(F)cc2NC(=O)c2ccc(-c3cc(O)ccc3C)c(C)c2)CC1", "test": "binding, competition with immobilised ligand", "setting": "1 µM", "measurement": "remaining binding", "result": "95%"}
{"Structure (SMILES)": "CCn1cc(C(=O)O)c(=O)c2c(N)c(F)c(NC3CCCCC3)cc21", "test": "kinase activity", "setting": "0.1 µM, with: ATP at Km", "measurement": "inhibition", "result": "-5.5%"}
{"Structure (SMILES)": "CN1CC[C@@H](COc2cnc(C#N)cc2-c2ccn3nc(NC(=O)C4CC4)cc3c2)C1", "test": "enzyme activity, inhibitor", "setting": "1 µM", "measurement": "inhibition", "result": "-9%"}
{"Structure (SMILES)": "N[C@H]1CC[C@H](Nc2nccc(-c3cccnc3Oc3ccc(NC(=O)NC4CC4)c4ccccc34)n2)CC1", "test": "kinobead competition pulldown", "test system": "HEK293/HCT116 lysate mixture", "setting": "10 µM, 1 h, 4 °C", "how to read": "lower = stronger competition", "measurement": "log2 LFQ intensity", "result": "19.6 and 19.7 and 18.6 and 20.1"}
{"Structure (SMILES)": "O=C(Cc1ccc(OCc2ccccc2)cc1)NC1(C(=O)O)CCN(C(=O)c2ccc(-c3cccc(Cl)c3)cc2)CC1", "test": "enzyme activity, inhibitor", "setting": "10 µM", "measurement": "activity vs control", "result": "102%"}
{"Structure (SMILES)": "Cc1cccc(O[C@H]2CCC[C@@H](C(C)CNCc3ccncc3)C2)c1 (relative stereo)", "test": "enzyme activity, inhibitor", "setting": "1 µM", "measurement": "inhibition", "result": "6%"}
{"Structure (SMILES)": "CNC1C[S+]2CC[S+]3CC[S+](C1)[Ru-4]321([N]=C=S)[n]2c3ccc(OC)cc3c3c4c(c5cc(F)c[n+]1c5c32)C(=O)NC4=O (centres unmarked)", "test": "KinomeScan", "setting": "0.1 µM", "how to read": "relative to: untreated", "measurement": "remaining binding", "result": "96%"}
{"Structure (SMILES)": "CC(C)=CC1OC(C)(C)C2C=C3C(=O)C(Cl)=CC(O)C3C3C(O)C4OC4C(=O)C132 (centres unmarked)", "test": "cell-free assay, competition with immobilised ligand", "setting": "10 µM", "measurement": "remaining binding", "result": "92%"}
{"Structure (SMILES)": "Cc1cccc(-c2ccc3nc(NC(=O)C4CCCO4)nn3c2)c1 (centres unmarked)", "test": "enzyme activity, Dundee kinase panel", "setting": "10 µM", "measurement": "remaining activity", "result": "82%"}
{"Structure (SMILES)": "CN1CCN(Cc2ccc(-c3ccc(CO[C@H]4CCC[C@@H]4NC(=O)c4cc(-c5cnn(C)c5)cnc4N)cc3)cc2)CC1", "test": "enzyme activity, inhibitor", "setting": "0.1 µM", "measurement": "inhibition", "result": "29%"}
{"Structure (SMILES)": "COc1cc(Nc2nc(C)cc(-c3cnn4nc(OC)ccc34)n2)cc(C(F)(F)F)c1", "test": "kinase binding", "setting": "1 µM, MST4", "measurement": "percent of control binding", "result": "85%"}
{"Structure (SMILES)": "Cc1ccc(C)c(-c2ccc3nc(NC(=O)C4CCCCC4)nn3c2)c1", "test": "enzyme activity, Dundee kinase panel", "setting": "10 µM", "measurement": "remaining activity", "result": "71%"}
{"Structure (SMILES)": "NC(=O)C[C@H]1CCc2sc3ncnc(O[C@H]4CC[C@H](N5CCOCC5)CC4)c3c21", "test": "enzyme activity, inhibitor", "setting": "10 µM", "measurement": "inhibition", "result": "6%"}
{"note": "For quick reference, copied from above:"}
{"Structure (SMILES)": "Cc1cccc(O[C@H]2CCC[C@@H](C(C)CNCc3ccncc3)C2)c1 (relative stereo)", "test": "enzyme activity, inhibitor", "setting": "1 µM", "measurement": "inhibition", "result": "6%"}
{"Structure (SMILES)": "CNC1C[S+]2CC[S+]3CC[S+](C1)[Ru-4]321([N]=C=S)[n]2c3ccc(OC)cc3c3c4c(c5cc(F)c[n+]1c5c32)C(=O)NC4=O (centres unmarked)", "test": "KinomeScan", "setting": "0.1 µM", "how to read": "relative to: untreated", "measurement": "remaining binding", "result": "96%"}
{"Structure (SMILES)": "CC(C)=CC1OC(C)(C)C2C=C3C(=O)C(Cl)=CC(O)C3C3C(O)C4OC4C(=O)C132 (centres unmarked)", "test": "cell-free assay, competition with immobilised ligand", "setting": "10 µM", "measurement": "remaining binding", "result": "92%"}
